Results of several laboratories.
A part holds a random share of what one study measured.

Block 1
Target: human cyclin B1
Effect on: peptide binding
Technique: yeast competitive growth sequencing
Molecule type: peptide
Organism: Saccharomyces cerevisiae
Strain: cyclin B1-Cln2 fusion
Concentration: concentration not given
Notes: peptide tiling library
Reading: direction not given
Molecule | binding enrichment score
PPTFLSTGEIHAFLSS | 0.565
VKTKKRLNFDDK | 0.15
ISRLFPPRTPGWHQLQ | -0.28
TTTTSPRTPPPLTVQD | -0.215
AGSAKRRLFGEDPPKE | 0.265
RRRRLLFWDKETQI | 0.319
DWDTVERQEEEAPSWD | 0.577
NSMKELNFSHLPSNSV | -0.0801
RRRIKLPESDSSED | 0.498
RTEALEQGGLPKKLIF | 0.146
ATNSSHTDAHEILVSD | 0.0747
PKRAKRKLYTSEISSP | 0.374
NRLLKLFTRCLTPLVP | -0.337
EHCRVLFLDHVMYTIH | -0.0109
KRNLLNEFDRII | 0.891
PFSENVSAVQKLDFSD | 1.31
SNFFDVIKQLFSDEKN | 1.08
PKNAKRNLSSEFAN | 0.279
NEGVSNAVRRSLYIRD | 0.122
LAKRALKYTD | 0.431
TLPYDLACTGGDFVLF | 0.413
TQERKQIHCLSEDELS | 0.636
VSRNLRSSLKSSLHTL | -0.163
SPREGHMMDALYAQVK | 0.205
YLYLLLTQSLWCRV | 0.574

Block 2
Target: Interferon regulatory factor 5, full length, phosphomimetic (IRF5, Homo sapiens, UniProt Q13568-2, residues 1-514, S451D/S453D/S456D/S462D)
Technique: protein-binding microarray
Molecule type: double-stranded DNA, one strand shown
Sample: in vitro
Concentration: 940 nM top
Notes: 60-bp whole probe
With: salmon DNA 0.4 mg/ml
Relative to: random background probes
Reading: higher = stronger binding
Constant ends, left off below: GCCTAGCAC … GTCTTGATTCGCTTGACGCTGCTG
Strand | fitted relative affinity [z-score]
TTAGGTATCCTTTTTCTTTAGTGCTAG | 1.05
GACGGTTTCCTTCTCCTGAAGTGCTAG | 1.63
TCAAGTATGTTCCTTATTACTGTGCTA | 0.651
GACGATACCGGGTATCGAGACGTGCTA | 2.19
GACGATTTCGGGACTGGAGAAGTGCTA | 0.143
CTCCCCTTGCTTTCCAATTCGTGCTAG | 0.504
AGGCATGTGGGTTCCATCATGTGCTAG | -0.225
TTAGGTTTCGGGACTGGGATAGTGCTA | 7.27
TTAGGTTTCCTGCTCCTTTAGTGCTAG | 0.96
TTTGATTTCAGTTTCGATTAGTGCTAG | 9.8
CACGGTTTCCTTTTCCTGACGTGCTAG | 1.9
GACGGACTGTTTCTCCTGACGTGCTAG | 0.549
CATACAATTTCAGATTCCAGTGTGCTA | 0.894
GACGGTCTCGGTCTCTGGACGTGCTAG | 3.36
GACGGTCTCTTTATCCTGACGTGCTAG | 0.978
GACGATCTCAGACTGGAGACGTGCTAG | -0.492
GACGGACTGGGGTTTCGGGACGTGCTA | 2.05
TCAATATTCTGCTTTGCACTGTGCTAG | 0.0969
GACGAACTGAGTCTCGATACGTGCTAG | 2.98

Block 3
Target: Histone acetyltransferase KAT6A, winged helix 1, GST fusion (KAT6A, Homo sapiens, UniProt Q92794, residues 1-85)
Technique: protein binding microarray
Molecule type: double-stranded DNA, one strand shown
Sample: in vitro
Concentration: not given
Notes: 8-mer, flanks averaged, mean of 2 arrays, mostly near background
Relative to: not given
Reading: higher = stronger binding
Residues (chain): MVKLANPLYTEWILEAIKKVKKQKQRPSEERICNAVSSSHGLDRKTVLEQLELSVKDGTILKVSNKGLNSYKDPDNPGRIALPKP
Strand | E-score
GCATTAAA | -0.245
AACGTGAA | -0.179
TCGCAACA | -0.00407
ACAGTGTA | -0.139
AGTGGAGA | -0.105
CCATCAAC | -0.0813
CCTTCCAC | 0.0309
CAACGTAA | -0.166
GATACACC | 0.0527
AAGTGATA | -0.218
ATAAGTTC | -0.12
ATCAACGC | -0.0102
GAGAGGAA | -0.199
TAGCACGA | -0.0778
GATAGGAC | -0.032
CCACAACG | 0.122
AATCCCCT | -0.196
ATGAGGAG | -0.135
AACTAGAT | -0.0983
AACTAGCT | 0.0198
CTACGGTA | 0.182
TACGTATA | -0.0356
GTATCCCA | -0.105
ACTCGCTG | 0.123
AGACCACG | -0.147

Block 4
Target: Phosphate system positive regulatory protein PHO4, full length, GST-tagged (PHO4, Saccharomyces cerevisiae, UniProt P07270, residues 1-312)
Technique: competition protein-binding microarray
Molecule type: double-stranded DNA, one strand shown
Sample: in vitro
Concentration: 2 µM
Notes: whole 60-bp probe, lowest competitor level
With: Cbf1 competitor, 0.05 µM
Reading: higher = stronger binding
Target sequence (chain): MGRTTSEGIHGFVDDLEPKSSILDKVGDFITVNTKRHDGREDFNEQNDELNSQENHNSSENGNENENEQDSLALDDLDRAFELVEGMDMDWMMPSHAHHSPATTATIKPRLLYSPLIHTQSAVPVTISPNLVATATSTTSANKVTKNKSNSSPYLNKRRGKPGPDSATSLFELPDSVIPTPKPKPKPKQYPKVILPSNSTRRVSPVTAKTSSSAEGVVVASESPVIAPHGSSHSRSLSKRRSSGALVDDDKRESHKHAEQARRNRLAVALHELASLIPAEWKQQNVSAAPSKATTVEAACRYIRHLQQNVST
Strand | fluorescence intensity [a.u.]
CAACGAGCTCTTTGCCACGTATCAACTGGAGAAGAGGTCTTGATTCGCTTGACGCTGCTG | 6230
CATACCCAACCTTTTCACGTGAGCTAAGATATTTGTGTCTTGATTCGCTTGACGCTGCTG | 11700
TGCGCAACAACTTGGCCAGTGGGTGTATGTCTAGAAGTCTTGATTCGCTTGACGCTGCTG | 4400
CAACGATTGATTACGCAGATGACTAACCGCCAGTCAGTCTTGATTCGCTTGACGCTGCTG | 2640
ACAGGCAGGGGGTCCCACGATTCCTGTGCCGACATTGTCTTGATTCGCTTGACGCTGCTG | 7230
CCAGCAGGAAATAGCCCCGTGCTTTTCCATCCTGACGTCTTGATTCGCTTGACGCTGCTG | 10200
AGGCAGCAATATTGGCGTGTGCCGCTGAATACATTCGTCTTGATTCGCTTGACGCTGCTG | 6990
AAAGCGGTAATTTGTACTGTGGGTGCAGATATCTATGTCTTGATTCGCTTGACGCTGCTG | 3780
AAGGTGGAACGATTCCACGTGGATTGTCTAAACTGTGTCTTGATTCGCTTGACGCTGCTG | 14800
CCTCAGGAAGACCTAAATGTGACGGTTCATCGTAGTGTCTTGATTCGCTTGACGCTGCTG | 4420
TGCGCAACAACTTTTCACGTGGGTTTATGTCTAGAAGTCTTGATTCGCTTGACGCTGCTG | 13200
CGCCAGCAGTGAAACCTCGTGGGACAAAGCCGGTTCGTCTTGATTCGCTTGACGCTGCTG | 10300
GTACTTGATTTAACCTGCGTGCTTTAAGTCGGTAAAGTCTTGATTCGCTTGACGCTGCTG | 9560
GTTTCACTTGCGTACTTCGTGCCAGGCTTGATGGCTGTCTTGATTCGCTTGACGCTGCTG | 6320
GACTTTTCGAGCCTTTATGACCGGATAAAAAGCCTAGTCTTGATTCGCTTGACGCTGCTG | 2420
TGCAAGAGAAAAAGTTGCGTGCGATACTGCCTAGGAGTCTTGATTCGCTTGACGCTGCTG | 5700
AAAGCGGTAATTTTTCACGTGCCTTCACATATCTATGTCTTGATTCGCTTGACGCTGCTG | 16600
TTAATATGGTGGAGTCAGCTGAGAAGTTTTTTCAATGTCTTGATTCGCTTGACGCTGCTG | 3110
AAGTTTTTTTCTACACGCATGAGCAGAATTAGACGGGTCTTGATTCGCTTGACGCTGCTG | 7350

A few entries again (block 3):
Strand | E-score
ATCAACGC | -0.0102
GAGAGGAA | -0.199
TAGCACGA | -0.0778
GATAGGAC | -0.032
CCACAACG | 0.122
AATCCCCT | -0.196
ATGAGGAG | -0.135
AACTAGAT | -0.0983
AACTAGCT | 0.0198
CTACGGTA | 0.182
TACGTATA | -0.0356
